Measured values from different studies.
Each numbered part is a random draw from the data of one study; scales do not carry over between parts.

Block 1 — technique: aptamer microarray, sandwich; molecule type: DNA with 2'F-ANA; medium: in vitro; tested at: 200 nM; together with: Cy3 exosite-II aptamer, 400 nM; reading: higher = stronger binding; strand: GGTTGGTGTGGTTGG
Target: Prothrombin, mature alpha-thrombin (F2, Homo sapiens, UniProt P00734)
Notes: whole 15-mer aptamer, many near background
Modification | mean fluorescence intensity
2'F-ANA at 1 2 4 5 6 7 9 10 12 13 14 | 77.1 a.u.
2'F-ANA at 1 2 3 6 7 10 12 13 | 77.7 a.u.
2'F-ANA at 1 4 6 7 10 11 14 15 | 46 a.u.
2'F-ANA at 4 7 8 11 12 13 14 15 | 118 a.u.
2'F-ANA at 1 2 5 6 7 8 10 12 13 14 | 71.1 a.u.
2'F-ANA at 1 2 3 4 5 6 7 8 9 11 12 14 | 55.6 a.u.
2'F-ANA at 2 3 5 6 7 10 11 14 | 51.8 a.u.
2'F-ANA at 1 2 3 4 5 7 9 11 12 | 95.8 a.u.
2'F-ANA at 1 4 8 9 12 13 | 187 a.u.

Block 2 — technique: competition protein-binding microarray; molecule type: double-stranded DNA, one strand shown; medium: in vitro; tested at: 2 µM; together with: Pho4 competitor, 0.05 µM; reading: higher = stronger binding
Target: Centromere-binding protein 1, full length, His-tagged (CBF1, Saccharomyces cerevisiae, UniProt P17106, residues 1-351)
UniProt P17106, sequence (whole entry, looked up): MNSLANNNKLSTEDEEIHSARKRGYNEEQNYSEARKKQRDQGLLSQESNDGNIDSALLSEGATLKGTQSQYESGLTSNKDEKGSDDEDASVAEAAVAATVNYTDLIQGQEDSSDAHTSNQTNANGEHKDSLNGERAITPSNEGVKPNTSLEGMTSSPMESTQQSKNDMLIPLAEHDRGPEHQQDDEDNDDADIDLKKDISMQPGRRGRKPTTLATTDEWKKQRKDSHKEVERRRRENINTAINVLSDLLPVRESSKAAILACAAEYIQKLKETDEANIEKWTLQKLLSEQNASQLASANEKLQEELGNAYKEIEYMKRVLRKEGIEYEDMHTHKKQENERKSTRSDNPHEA
Notes: whole 60-bp probe, lowest competitor level
Strand | fluorescence intensity
TGGCAGTAACACCGTCACGCTTTTCATGTTTATGGCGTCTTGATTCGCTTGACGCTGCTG | 230 a.u.
CATACCCAACCTTGGGTAGTGGGTGAAGATATTTGTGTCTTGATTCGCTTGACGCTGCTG | 58.4 a.u.
CTAACGAAGGTTTGGCACGTGGGTGACAAGCCAAGTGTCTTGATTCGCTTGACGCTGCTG | 1120 a.u.
TTACTGCGATTATCGCACGGGTGTGGAGGTGTCGCTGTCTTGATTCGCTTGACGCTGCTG | 66.9 a.u.
AAATTACTAAGTTGCCTGGTGGGTGACGCCGTATGAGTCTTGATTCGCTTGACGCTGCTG | 56.6 a.u.
AAGTCATAGAATCACCACGTGAAAAAAAAAAAAAAAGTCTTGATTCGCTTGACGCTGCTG | 764 a.u.
CATACCCAACCTTGCAGCGTGGGTGAAGATATTTGTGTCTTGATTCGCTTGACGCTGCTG | 74.8 a.u.
CGTCCTAGCGATTGACATGTGGGTGCCATGAGGAAGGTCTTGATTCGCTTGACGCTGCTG | 100 a.u.

Block 3 — technique: protein-binding microarray; molecule type: double-stranded DNA, one strand shown; medium: in vitro; tested at: 250 nM; notes: 60-bp whole probe; together with: salmon DNA 0.4 mg/ml; relative to: random background probes; reading: higher = stronger binding; shared flanks, not repeated: GCCTAGCAC … GTCTTGATTCGCTTGACGCTGCTG
Target: Interferon regulatory factor 5, full length, phosphomimetic (IRF5, Homo sapiens, UniProt Q13568-2, residues 1-514, K96S/S451D/S453D/S456D/S462D)
Strand | log fluorescence [z-score]
GACGATATCGGGCCTGGAGACGTGCTA | 0.538
GACGGACCGGGGACTGGGGACGTGCTA | -0.497
GTAGGTATCGGTATCGGTTAGTGCTAG | 9.51
TCACCTGTCCTTTTCTTACTGTGCTAG | 0.715
TTATTTTTTTTATTTATAAAGTGCTAG | 1.61
TTAGGTATCGGTTTCGGTTCGTGCTAG | 10.7
TCAAGTTTCTCCTTTCGACTGTGCTAG | 4.99
TCAGTTTCGTATCTTCATACTGTGCTA | 8.54
TTAGATTTCGGGCCTGGATTAGTGCTA | 2.32
GATGGACTGCTACTGCTGACGTGCTAG | -0.485

Mixed results
Molecule | target | test | system | setting | scale | endpoint | result
PhoQ, residues 284 288 289 292 302 303 TAVSDG | PhoP, residues 12 14 15 18 19 LWHVM (Escherichia coli, UniProt P23836) | Sort-seq, refers to: YFP reporter | E. coli | PhoQ-PhoP variant library, together with: 10 µM Mg2+ | relative to: high Mg2+ state, higher = stronger signaling | fold induction | 4.59
